Experimental data pooled from the literature.
Every numbered part comes from another study and shows a few of its results, in no order.

Set 1 — method: protein binding microarray; form: double-stranded DNA, one strand shown; medium: in vitro; tested at: not given; baseline: not given; reading: higher = stronger binding
Target: Histone acetyltransferase KAT6A, winged helix 2, GST fusion (KAT6A, Homo sapiens, UniProt Q92794, residues 85-181)
Notes: 8-mer, flanks averaged, mean of 2 arrays, mostly near background
Construct (chain): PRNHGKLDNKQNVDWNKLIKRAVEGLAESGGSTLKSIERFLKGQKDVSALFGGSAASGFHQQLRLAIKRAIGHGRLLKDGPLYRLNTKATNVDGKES
| Strand | E-score |
| --- | --- |
| GAAAAAAA | 0.214 |
| ACGACTCA | -0.148 |
| AATACATA | 0.0352 |
| CGAGACCG | 0.147 |
| CATCTGCA | -0.0276 |
| CTGCTACA | 0.165 |
| ATTTAAGA | 0.0144 |
| CAATGCTC | -0.00284 |
| GACGGCCA | 0.0459 |
| GCCGCTAC | 0.0951 |
| ATGACCGC | 0.00617 |
| GTTATCGA | -0.23 |
| AAACTCTT | -0.0574 |
| AACAGATA | -0.103 |
| CTTGAAGC | 0.0216 |
| CCTGCTCG | 0.0134 |
| AACTAAAC | -0.0915 |

Set 2 — method: RNA Bind-n-Seq; form: RNA; medium: in vitro; tested at: 100 nM; notes: RNA with constant flanks, ends assumed; baseline: input RNA pool; reading: higher = stronger binding
Target: RING finger protein unkempt homolog, zinc fingers 1-6, SBP tag (UNK, Homo sapiens, UniProt Q9C0B0, residues 30-357)
Sequence of UniProt Q9C0B0 (30-357, looked up): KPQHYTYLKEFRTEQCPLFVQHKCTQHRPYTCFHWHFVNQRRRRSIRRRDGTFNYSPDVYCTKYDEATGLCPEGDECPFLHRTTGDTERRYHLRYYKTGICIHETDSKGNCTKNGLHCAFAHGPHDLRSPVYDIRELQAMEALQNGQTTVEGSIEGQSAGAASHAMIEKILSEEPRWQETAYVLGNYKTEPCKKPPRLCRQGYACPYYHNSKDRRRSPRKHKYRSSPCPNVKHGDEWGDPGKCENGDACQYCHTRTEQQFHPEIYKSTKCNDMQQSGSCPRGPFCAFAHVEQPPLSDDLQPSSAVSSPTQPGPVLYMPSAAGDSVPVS
| Strand | bound/input enrichment [ratio] |
| --- | --- |
| GGGAGUUCUACAGUCCGACGAUCCAUGAUCUUGUUACUGUGAUAUUUUAAAUAUCCACAGUACUCACUUUUUCCAAAUGAUCCCCGUAAUUGCCCCGAAAUAUCUUUCUCUUACCUGUUAUUUAUCAAUUUUUCCCAGUAUUUCAACAGAGGAUUGAGCAUCA | 0.657 |
| GGGAGUUCUACAGUCCGACGAUCUGGGCAUCCUCUCUGGGGAGCUGCUGGCCGCUCCGCGUUGUUUGAUUUUUGACCUUGACACCGCCGACCGGCUUGUGGUUUUUUUAAUUUAAAGAUAUUAAGACUUAAUUCACUAAAAUUCAACAGAGGAUUGAGCAUCA | 0.26 |
| GGGAGUUCUACAGUCCGACGAUCUAUCCGUGUUGUACCAGCCUAUUAACCUCUUGUCUGUGCACAGCUUCAAAUGUUACCGUCCCGUCCGAUUUUUAUUUAAAAUAUGAAAAACUGCUUUUCCCAAGAUGUUUUUUAAAAACACAACAGAGGAUUGAGCAUCA | 0.742 |

Set 3 — method: protein-binding microarray; form: double-stranded DNA, one strand shown; medium: in vitro; tested at: not given; reading: higher = stronger binding
Target: Max dimerization protein 1, bHLH-zipper, MAX partner unstated (MXD1, Homo sapiens, UniProt Q05195, residues 56-136)
Notes: k-mer, scored over probes, only values ≥0.25
Construct (chain): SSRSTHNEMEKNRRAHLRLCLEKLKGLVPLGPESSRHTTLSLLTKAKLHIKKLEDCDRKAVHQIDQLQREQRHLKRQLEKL
| Strand | E-score |
| --- | --- |
| AAATCATG | 0.311 |
| CGTGTCCC | 0.365 |
| AAAAACAC | 0.29 |
| GGAGTGCA | 0.274 |
| AAACACAT | 0.311 |
| CTACACGC | 0.348 |
| AAGCCACG | 0.292 |
| CATGAGGC | 0.292 |
| ATCATGTC | 0.274 |
| AACGTGAC | 0.33 |
| CGCCTCCC | 0.299 |
| CACCCTCC | 0.283 |
| ACATGGGC | 0.283 |
| AACATGCA | 0.276 |
| GCGTGACC | 0.303 |
| ACGCGCCA | 0.351 |
| CGTGGGTA | 0.306 |
| ACATGGAT | 0.257 |
| CACCACGC | 0.396 |
| CATGGTGG | 0.294 |
| CTGCACAC | 0.35 |
| CCACGTGA | 0.483 |
| CCCACCCA | 0.351 |
| ACGTGCCA | 0.415 |

Set 4 — method: RNA Bind-n-Seq; form: RNA; medium: in vitro; tested at: 365 nM; baseline: no-protein control; reading: higher = stronger binding
Target: RNA binding protein fox-1 homolog 2, RRM domain, GST-SBP tag (RBFOX2, Homo sapiens, UniProt O43251-10, residues 100-194)
Notes: natural RNA segment, single round, ends assumed
All sequences stand within: GGGAGUUCUACAGUCCGACGAUC … UGGAAUUCUCGGGUGCCAA
Residues (chain): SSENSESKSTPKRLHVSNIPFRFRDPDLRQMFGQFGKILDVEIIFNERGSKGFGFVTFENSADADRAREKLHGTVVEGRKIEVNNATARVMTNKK
| Strand | RBNS enrichment (R) |
| --- | --- |
| AAUUUGGGGUGGGAUAGCAGGUCAGUUGAUCUUCUGCAGGAAGGUGCAGCUUUUCCAUAUCAGCUCAACCACGCCGCCAGUCCAUUCUUAAGGAACUGCCGACUAGGACU | 0.24 |
| CCUCUGGGACCCCAGCUGCUCUAAGCCCAGGAUCUCUUUCCCCAAGGACCCAGCCCUCGCCUCUGCGAGAAUGAACAUAUUUGAUAGAUUUUUCUUAACAAGUUAGAAAA | 0.364 |
| UGAACAUCUCCUUUCUCUUCUUGCUUCAAUUGCUUACCCACUGCCUGCCCAGACUUUCUAUCCAGCCUCACUGAGCUGCCCACUACUGGAAGGGAACUGGGCCUCGGUGG | 0.818 |
| UGGGAAUAUAAUCUGUUUAGACGAUAAUAGAGGGAAAUGCCAUAAUUAACAAAUCUCCCUUCACUCACCACUAUCCUCAUUCUUGCAGUUGUCAAGGUGUAAGCCUCACU | 0.238 |
| AAGUCAAGCAGAGACUCAAACUGAGGCUUCCUCCUCCACGAAGUCAGGAGCAGACAGAGCAAGAAUUGGCUCCAGGGCUCAAGCCUGCCCUCUGGGCAGCCUGGCGUGGG | 0.206 |
| GUAAACCUGUUUUAGAUAUCAUACUGUUAAUAUUUUAUUGAAAAUUUAUUUCAGAGCGGAGAAACUUAAGCUAAAGUCUGUUAUACAGAAUUGAAAGCCUUCGUAUCUUG | 0.437 |
| UUCAUUAGCAAGUGAGUUUGGUGUUUUAUAGGUCACAUAUGUCUGUAUCUACUUAGCCAGAUGCUUGGCCUGGUGGGACCAGGGCUCCACAGAGGCCACAAAAUGUUGCA | 3.55 |
| GGCUUUUAUCCACCUUGAAUCCCUAUCCUCCUCUUUGUAGUUGUCGGUCUCACUGAUAACAGCUCCAGAAAAAAAGACAAGGCUCCCCCUCUGACCCUUCCUGUUGGUAU | 0.343 |
| CCCUACUUUUCACCCCGCUGCCCCUCGGGAGGACUGCAGCUCGCUCCUGUUGGGAUCGCAAAGCUCGGGUACCUGCCCCGGCUUUGCUCCACACAGUCACGGGGUCCAUU | 0.292 |
| ACAAUUCACUUGAAUUUGACAAACUGAAACAGAUGGGUUUUCUGGGUUCUCUGAUAACCUAUGGGAAUGUUUGGAUGCCAGUUGGGCUAGUGAAUCGCCACUGUACUGUA | 0.381 |
| GAAGACAGCAAACUGGUAAGGUUCAUUCCUGGCUCGGUGCCAGGAACAUUUGUGUUUUGGAGCUCACUUUUAGUUUUGAAACGGCCUUUGCUCGUUAUAUUGUGAUCCAG | 0.35 |
| CUUUAUAUUUAUAUAGAACAUUGAGGUUGUGUCAAUAAAAACAGUGUUUUGUUUAAAAAAGAGCAGUACCACAUUGUCUGGUCUCAAGUCUGUGCCUGCGAUGGCUGAGU | 0.334 |

Set 5 — method: universal PBM; form: double-stranded DNA, one strand shown; medium: in vitro; tested at: not given; reading: higher = stronger binding
Target: Sal-like protein 4, full length isoform B (SALL4, Homo sapiens, UniProt Q9UJQ4-2, residues 1-616)
Notes: 8-mer, flanks averaged, mean of replicates
Construct (chain): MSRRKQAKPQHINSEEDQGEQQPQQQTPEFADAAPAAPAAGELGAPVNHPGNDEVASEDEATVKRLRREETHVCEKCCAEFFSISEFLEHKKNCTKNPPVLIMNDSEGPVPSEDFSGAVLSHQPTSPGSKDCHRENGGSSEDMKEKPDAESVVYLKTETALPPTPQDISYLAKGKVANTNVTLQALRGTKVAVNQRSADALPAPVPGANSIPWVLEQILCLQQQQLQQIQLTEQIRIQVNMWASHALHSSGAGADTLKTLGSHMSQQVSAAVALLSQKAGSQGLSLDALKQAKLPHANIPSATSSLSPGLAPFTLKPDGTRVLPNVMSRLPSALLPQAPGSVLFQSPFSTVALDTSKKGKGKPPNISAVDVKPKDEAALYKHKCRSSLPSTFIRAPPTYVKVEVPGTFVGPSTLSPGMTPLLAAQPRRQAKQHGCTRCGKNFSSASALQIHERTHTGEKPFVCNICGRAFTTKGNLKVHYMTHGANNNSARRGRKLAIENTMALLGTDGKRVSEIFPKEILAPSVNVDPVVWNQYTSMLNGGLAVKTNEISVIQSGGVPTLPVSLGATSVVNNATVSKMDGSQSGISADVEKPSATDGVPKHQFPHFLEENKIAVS
| Strand | E-score |
| --- | --- |
| TGCGTACA | 0.0404 |
| GTCTACCA | -0.104 |
| CGGGGTTC | -0.297 |
| GCTCTCCC | -0.192 |
| CGGGCGGA | -0.352 |
| CCGAGATC | -0.334 |
| CCGCTAGA | -0.202 |
| ACCGCGGC | -0.331 |
| ATAGCGCG | -0.0338 |
| ATAGTTAC | 0.278 |
| ACCCACAC | -0.0781 |
| GGCAAATA | 0.201 |
| ACCGGACC | -0.298 |
| ATTGAGAG | 0.115 |
| AAAGAGTT | 0.209 |
| AAAGATGA | 0.181 |
| CCGGCCGA | -0.312 |

Set 6 — method: protein-binding microarray; form: double-stranded DNA, one strand shown; medium: in vitro; tested at: 250 nM; notes: 60-bp whole probe; together with: salmon DNA 0.4 mg/ml; baseline: random background probes; reading: higher = stronger binding; all sequences stand within: GCCTAGCAC … GTCTTGATTCGCTTGACGCTGCTG
Target: Interferon regulatory factor 5, full length, phosphomimetic (IRF5, Homo sapiens, UniProt Q13568-2, residues 1-514, K96S/S451D/S453D/S456D/S462D)
| Strand | log fluorescence [z-score] |
| --- | --- |
| TTAGATCGCAGTTTCGATTAGTGCTAG | 8.62 |
| TTAGATTTCGGGTATCTATTAGTGCTA | 5.62 |
| ATGGCTCTCTGGACTGTGTGTGTGCTA | -0.785 |
| TTTGGTGTCTTTTGTGGAAACGTGCTA | 0.529 |
| TCCACTTTCTTAATGCTTCTGTGCTAG | 2.38 |
| AACGGTATCGACACTGGGGACGTGCTA | 2.13 |
| TTAGGTCTCGGTATCGATTAGTGCTAG | 4.87 |
| TTAGATTTCAGTCTCGATCAGTGCTAG | 2.68 |
| CCCGCCCCGCCCCGCCCGCAGTGCTAG | -0.718 |
| GACGATTTCAGACTGGAGACGTGCTAG | 0.127 |
| TTAGGACTGGACACTGAGTTAGTGCTA | -0.193 |
| TCATTTTTGTATTTTTGACTGTGCTAG | 1.3 |
| CTTAGACTGTCCTGCTGGAGGTGCTAG | -0.306 |
| TTAGATCTCAGACTGGATCAGTGCTAG | -0.316 |
| GACGATTTCAGTTGCGAGACGTGCTAG | 1.31 |
| TTAGGACTGAACTATCGGTTAGTGCTA | 6.03 |
| GACGGTCTTGGACTGGGGACGTGCTAG | -0.385 |
| TTTGGACTGGGGTTTCGGTTAGTGCTA | 6.69 |
| GACGGTATCGGGACTGCGGACGTGCTA | 1.31 |
| TTAGAACTGGGGACTGGTTTAGTGCTA | -0.318 |
| AACGGTCTCCTTTTCCTGACGTGCTAG | 0.33 |
| TCATCTTGCAGATGTCGCACTGTGCTA | 0.265 |
| GAGAATTTCCACTTTGACTTGTGCTAG | 0.78 |

For quick reference, copied from above (set 4):
| Strand | RBNS enrichment (R) |
| --- | --- |
| GGCUUUUAUCCACCUUGAAUCCCUAUCCUCCUCUUUGUAGUUGUCGGUCUCACUGAUAACAGCUCCAGAAAAAAAGACAAGGCUCCCCCUCUGACCCUUCCUGUUGGUAU | 0.343 |
| UUCAUUAGCAAGUGAGUUUGGUGUUUUAUAGGUCACAUAUGUCUGUAUCUACUUAGCCAGAUGCUUGGCCUGGUGGGACCAGGGCUCCACAGAGGCCACAAAAUGUUGCA | 3.55 |
| GAAGACAGCAAACUGGUAAGGUUCAUUCCUGGCUCGGUGCCAGGAACAUUUGUGUUUUGGAGCUCACUUUUAGUUUUGAAACGGCCUUUGCUCGUUAUAUUGUGAUCCAG | 0.35 |
| CCUCUGGGACCCCAGCUGCUCUAAGCCCAGGAUCUCUUUCCCCAAGGACCCAGCCCUCGCCUCUGCGAGAAUGAACAUAUUUGAUAGAUUUUUCUUAACAAGUUAGAAAA | 0.364 |
| UGAACAUCUCCUUUCUCUUCUUGCUUCAAUUGCUUACCCACUGCCUGCCCAGACUUUCUAUCCAGCCUCACUGAGCUGCCCACUACUGGAAGGGAACUGGGCCUCGGUGG | 0.818 |
